Results collected from several papers.
“And” joins repeats or separate records; there may be more than shown.
Target: Inhibitor of nuclear factor kappa-B kinase subunit epsilon (IKBKE, Homo sapiens, UniProt Q14164)

N[C@H]1CC[C@H](Nc2nccc(-c3cccnc3Oc3ccc(NC(=O)NC4CC4)c4ccccc34)n2)CC1 — log2 LFQ intensity (kinobead competition pulldown; HEK293/HCT116 lysate mixture; 10 µM, 1 h, 4 °C; lower = stronger competition): 19.9 and 20.7 and 20.3 and 20.4
C=CC(=O)Nc1cccc(-c2cnc3[nH]cc(C(=O)NC(C)(C)C)c3n2)c1 — inhibition (kinase activity; 0.1 µM): 11% and 13%
CNC1C[S+]2CC[S+]3CC[S+](C1)[Ru-4]321([N]=C=S)[n]2c3ccc(OC)cc3c3c4c(c5cc(F)c[n+]1c5c32)C(=O)NC4=O (stereo not shown) — remaining binding (KinomeScan; 0.1 µM; reference: untreated): 100%
CN1CCN(Cc2ccc(-c3ccc(CO[C@H]4CCC[C@@H]4NC(=O)c4cc(-c5cnn(C)c5)cnc4N)cc3)cc2)CC1 — inhibition (enzyme activity, inhibitor; 0.1 µM): 11%
Cc1cccc(-c2ccc3nc(NC(=O)C4CCCO4)nn3c2)c1 (stereo not shown) — remaining activity (enzyme activity, Dundee kinase panel; 10 µM): 100%
COc1c(Cl)cccc1Nc1c(-c2ccncc2C#C[C@@]2(C)CCCN2C(=O)/C=C/CN(C)C)[nH]c2c1C(=O)NCC2 — remaining binding (binding, competition with immobilised ligand; 3 µM): 85%
Nc1ncc(-c2cc(-c3cnn(CC(F)(F)F)c3)ncc2F)nc1C(=O)NC1CNCC(F)C1 (stereo not shown) — remaining activity (enzyme activity; 1 µM; reference: DMSO control): 94.5%
O=C(Cc1ccc(OCc2ccccc2)cc1)NC1(C(=O)O)CCN(C(=O)c2ccc(-c3cccc(Cl)c3)cc2)CC1 — activity vs control (enzyme activity, inhibitor; 10 µM): 101%
Cc1ccc(C)c(-c2ccc3nc(NC(=O)C4CCCCC4)nn3c2)c1 — remaining activity (enzyme activity, Dundee kinase panel; 10 µM): 104%
COc1cc(Nc2nc(C)cc(-c3cnn4nc(OC)ccc34)n2)cc(C(F)(F)F)c1 — remaining binding (KINOMEscan; 1 µM, IKK-epsilon; reference: DMSO): 83%
CNC(=O)C[C@H](Cc1ccc(C#N)cc1)NC(=O)c1cc(-c2ccc(CN[C@H](C)c3ccc(C)cc3)o2)ccc1Cl — activity vs control (enzyme activity, inhibitor; 1 µM): 98%
Cc1cccc(O[C@H]2CCC[C@@H](C(C)CNCc3ccncc3)C2)c1 (relative stereo) — inhibition (enzyme activity, inhibitor; 10 µM): 16%
NC(=O)C[C@H]1CCc2sc3ncnc(O[C@H]4CC[C@H](N5CCOCC5)CC4)c3c21 — inhibition (enzyme activity, inhibitor; 10 µM): 0%
Cc1ccc(-c2c(/C=C(\C#N)C(=O)NC(C)C)n(CCCO)c3ncnc(N)c23)cc1 — remaining binding (binding, competition with immobilised ligand; 1 µM): 100%
CS(=O)(=O)Nc1cccc(-c2csc3cnc(Nc4ccc(N5CCN(CCCCCOc6cccc7c6C(=O)N(C6CCC(=O)NC6=O)C7=O)CC5)cc4)nc23)c1 (stereo not shown) — inhibition (probe labelling, inhibitor, KiNativ chemoproteomics; MOLT-4; 1 µM): 83.5%
CCN1CCN(Cc2ccc(C(=O)Nc3ccc(C)c(NCc4cnc5[nH]ccc5c4OC)c3)cc2C(F)(F)F)CC1 — remaining binding (binding, competition with immobilised ligand; 1 µM): 100%

Excerpt of the above:
Nc1ncc(-c2cc(-c3cnn(CC(F)(F)F)c3)ncc2F)nc1C(=O)NC1CNCC(F)C1 (stereo not shown) — remaining activity (enzyme activity; 1 µM; reference: DMSO control): 94.5%
CN1CCN(Cc2ccc(-c3ccc(CO[C@H]4CCC[C@@H]4NC(=O)c4cc(-c5cnn(C)c5)cnc4N)cc3)cc2)CC1 — inhibition (enzyme activity, inhibitor; 0.1 µM): 11%
